Experimental data gathered from unrelated publications.
Compare with care: the assays were run in different laboratories. Values joined by “and” are separate records of one study, mostly repeats; a detail may differ. Numbers after ± are the reported error. In brackets after ≈: the same amount, converted by molar mass.

CCN(CC)C(=S)S  inhibition (enzyme activity, inhibitor; human liver microsomes; 40 µM, 10 min preincubation, with: rosiglitazone 10 µM): 41%
des-acyl ghrelin (human)  brain/serum ratio (mouse, Ghsr knockout, hypothalamus; intravenous, 10 min): 9.16 µL/g
Cc1nc2cccc(OCC(C)(C)C(=O)NC(C)C)c2c(N)c1C(=O)O  Cmax (Sprague-Dawley rat, female, plasma; oral gavage, 10 mg/kg, day 1): 34 ± 3.9 ng/mL
OC[C@H]1O[C@@H](c2ccc(Cl)c(Cc3ccc(O[C@H]4CCOC4)cc3)c2)[C@H](O)[C@@H](O)[C@@H]1O  plasma concentration (HPLC-MS/MS; healthy Chinese volunteers, fasting; oral, 10 mg tablet, 1.5 h): 163 ± 35.6 ng/mL
CNC(=O)c1cc(Oc2ccc(NC(=O)Nc3ccc(Cl)c(C(F)(F)F)c3)c(F)c2)ccn1  terminal t1/2 (healthy male human, plasma; ocular, after last of multiple doses): 60 to 67 h
Cn1c(-c2ccc(C(N)=O)cc2F)nnc1C(C)(C)Oc1c(F)cc(Cl)cc1F  half-life median (young Japanese adults, plasma; oral, 10 mg single dose, day 1, high-dose multiple-dose study): 17.7 h
CC(C)(Sc1ccncc1-c1ccc(C#N)c2ccccc12)C(=O)O  t1/2 (human, male, Japanese, plasma; oral, 5 mg, day 6, fed, single dose): 7.98 h
Cn1ncc(Cl)c1-c1cc(C(=O)N[C@H](CN)Cc2ccc(F)c(F)c2)oc1Cl  effective half-life (human patients, plasma; oral, 10 mg once daily, day 8, repeat dose): 42.7 to 48.1 h
C[C@H]1CO[C@@H]2Cn3cc(C(=O)NCc4ccc(F)cc4F)c(=O)c(O)c3C(=O)N12  concentration (human, plasma; oral, 30 mg, 24 h, single dose, fed, healthy volunteers): 1930 ng/mL
CCCOc1ccc([C@H]2CNC(=O)N2c2ccc3[nH]cnc3c2)cc1  effective half-life (human, elderly, fasted, plasma; oral, 800 mg twice daily, tablet, day 11, 2 to 12 h postdose, geometric mean): 3.22 h
CC1=C2C[C@H]3[C@@H](CC[C@@H]4C[C@H](NS(C)(=O)=O)CC[C@@]43C)[C@@H]2CC[C@@]2(C1)O[C@@H]1C[C@H](C)CN[C@H]1[C@H]2C  AUC(0-24) (patients, plasma; oral, 200 mg daily, day 22, cycle 1): 15100 ng·h/mL
Cn1cc(-c2ccc3nnc(Sc4ccc5ncccc5c4)n3n2)cn1  CLint (CD-1 mouse male, hepatic S9; 1 µM, pH 7.4, with: without NADPH): 24.4 ± 9.31 mL/min/kg
CNCc1ccc(-c2[nH]c3cc(F)cc4c3c2CCNC4=O)cc1  Cmax (human, fasted, plasma; oral, 600 mg, single dose, arithmetic mean): 819 ng/mL
C[C@](N)(Cc1ccc(O)c(O)c1)C(=O)O  solubility (static gravimetric method; supercritical CO2, 701.1 kg/m3; 5 h, 323 K, pressure 15 MPa): 114 µg/mL (≈ 540 µM)
COc1cc(/C=C/C(=O)CC(=O)/C=C/c2ccc(O)c(OC)c2)ccc1O  brain uptake ratio (I-125 label; C57BL/6J mouse, cerebral cortex; intranasal vs intraperitoneal, 10 µg/mouse IN, 100 µg/mouse IP, 4 h; baseline: intranasal over intraperitoneal): 5.46
CC[C@H](C)[C@H](NC(=O)[C@H](Cc1ccccc1)NC(=O)[C@H](CCC(=O)O)NC(=O)[C@H](CCCCNC(=O)COCCOCCNC(=O)COCCOCCNC(=O)CC[C@H](NC(=O)CCCCCCCCCCCCCCCCC(=O)O)C(=O)O)NC(=O)[C@H](C)NC(=O)[C@H](C)NC(=O)[C@H](CCC(N)=O)NC(=O)CNC(=O)[C@H](CCC(=O)O)NC(=O)[C@H](CC(C)C)NC(=O)[C@H](Cc1ccc(O)cc1)NC(=O)[C@H](CO)NC(=O)[C@H](CO)NC(=O)[C@@H](NC(=O)[C@H](CC(=O)O)NC(=O)[C@H](CO)NC(=O)[C@@H](NC(=O)[C@H](Cc1ccccc1)NC(=O)[C@@H](NC(=O)CNC(=O)[C@H](CCC(=O)O)NC(=O)C(C)(C)NC(=O)[C@@H](N)Cc1cnc[nH]1)[C@@H](C)O)[C@@H](C)O)C(C)C)C(=O)N[C@@H](C)C(=O)N[C@@H](Cc1c[nH]c2ccccc12)C(=O)N[C@@H](CC(C)C)C(=O)N[C@H](C(=O)N[C@@H](CCCNC(=N)N)C(=O)NCC(=O)N[C@@H](CCCNC(=N)N)C(=O)NCC(=O)O)C(C)C  accumulation ratio (healthy Japanese subjects, plasma; subcutaneous, once weekly; baseline: 1.0 mg over 0.5 mg): 1.05
CNC(=O)c1ccc(-c2cnc3ncc(Cc4ccc5ncccc5c4)n3n2)cc1F  Tmax (median) (human, mild hepatic impairment (Child-Pugh A), plasma; oral, 200 mg single dose): 1.25 h
OCCc1ccc(O)c(O)c1  AUC(0-t) (male C57BL/6J mice, brain; oral, 200 mg/kg, 0 to 12 h, low-fat diet): 0.016 ± 0.001 nmol·min/g
CC(=O)N[C@H](C(=O)N[C@@H](CCCNC(=N)N)C(=O)N[C@H](C(=O)N[C@@H](CC(=O)O)C(=O)N[C@H](C(=O)N[C@@H](CCCNC(=N)N)C(=O)N[C@H](C(=O)N[C@@H](CC(=O)O)C(=O)N[C@H](C(N)=O)C(C)C)C(C)C)C(C)C)C(C)C)C(C)C  viscosity (rotational rheometry; 1% w/v aqueous solution; shear rate range 1-1000 s^-1): 626 ± 40.2 Pa·s
C=C(C)[C@@H]1CC[C@]2(NCCN3CCS(=O)(=O)CC3)CC[C@]3(C)[C@H](CC[C@@H]4[C@@]5(C)CC=C(C6=CC[C@@](CF)(C(=O)O)CC6)C(C)(C)[C@@H]5CC[C@]43C)[C@@H]12  terminal half-life (human, plasma; oral, 200 mg once daily, day 14): 22.1 h
O=C1N=C(N2CCOCC2)CN1c1ccc(Cl)cc1  terminal half-life (beagle dog, both sexes, plasma; oral, 30 mg/kg, day 0, tablets, single dose): 1.75 h
CC[C@@]1(O)C(=O)OCc2c1cc1n(c2=O)Cc2cc3c(CN(C)C)c(O)ccc3nc2-1  lactone-carboxylate interconversion kinetics (liposome suspension 50 mg/mL; pH 6.33 and 7.67, 37 °C; baseline: aqueous solution): no effect
Oc1ccc(/C=C/c2cc(O)cc(O)c2)cc1  effective permeability (in situ intestinal perfusion; Sprague-Dawley rat, ileum; 25 µg/mL, 120 min, pH 7.4): 11.833 ± 0.000138 ×10⁻⁶ cm/s
NC(N)=NCCC[C@H](NC(=O)[C@H](Cc1ccccc1)NC(=O)[C@@H]1CCCN1C(=O)[C@H](CO)NC(=O)[C@H](Cc1ccccc1)NC(=O)CNC(=O)[C@@H]1CCCN1C(=O)[C@@H]1CCCN1C(=O)[C@@H](N)CCCN=C(N)N)C(=O)O  concentration change (LC-MS/MS; human serum, tube without gel; concentration not given, 4 h, room temperature; baseline: initial concentration): -53.9 ± 23%
Oc1ncnc2[nH]ncc12  rosuvastatin pharmacokinetics (healthy human volunteers; oral, 300 mg once daily, 7 days, with: rosuvastatin 10 mg; baseline: placebo): no effect
CC(C)[C@](O)(c1ccc2cc(OC(F)F)c(OC(F)F)cc2c1)c1c[nH]nn1  AUC(tau) (human, male, plasma; oral, 750 mg, cycle 2 day 2, steady state): 63500 ng·h/mL
CC(C)[C@H](C(=O)Nc1ccc(C(=O)NO)cc1)c1ccccc1  tissue/plasma ratio (human, tumour centre over plasma; 40 mg; baseline: pre-anaesthesia plasma): 17.8
COc1cccc(N2CCN(C3=Nc4c(F)cccc4[C@H](CC(=O)O)N3c3cc(C(F)(F)F)ccc3OC)CC2)c1  volume of distribution (UHPLC-MS/MS; healthy women, plasma; intravenous infusion, 240 mg single dose, 30 min infusion, HPβCD formulation): 124 ± 44.6 L
C=CC(N)CCC(=O)O (stereo not drawn)  clearance (male Sprague-Dawley rat, plasma; oral, 1.0 mg/kg, formulation 3, with: low-fat infant formula 1500 mg/kg): 9.38 ± 0.2 mL/min/kg
CC(C)NC[C@@H](C(=O)N1CCN(c2ncnc3c2[C@H](C)C[C@H]3O)CC1)c1ccc(Cl)cc1  apparent clearance (human, Severe hepatic function, plasma; oral, 100 mg single dose, NCI classification, geometric mean): 106 L/h
CON  blood concentration (human, whole blood on ice; 30 min before centrifugation): 10.6 ng/mL
Cl.Cl.NCCCn1c2c(c3ccc(N)cc3c1=O)C(=O)c1ccccc1-2  tissue concentration (Sprague-Dawley female rat, liver; oral, 40 mg/kg/day for 3 days, 3 h after final dose): 3.75 µg/g and 5.03 µg/g
Cc1cc(-c2ncc(CC(=O)Nc3ccc(-c4cnccn4)cn3)cc2C)ccn1  steady-state AUC(0-24h) (patients, plasma; oral, dose not given, threshold for dysgeusia grade ≥2): < 762 ng·h/mL

Excerpt of the above:
CNC(=O)c1ccc(-c2cnc3ncc(Cc4ccc5ncccc5c4)n3n2)cc1F  Tmax (median) (human, mild hepatic impairment (Child-Pugh A), plasma; oral, 200 mg single dose): 1.25 h
OCCc1ccc(O)c(O)c1  AUC(0-t) (male C57BL/6J mice, brain; oral, 200 mg/kg, 0 to 12 h, low-fat diet): 0.016 ± 0.001 nmol·min/g
CC(=O)N[C@H](C(=O)N[C@@H](CCCNC(=N)N)C(=O)N[C@H](C(=O)N[C@@H](CC(=O)O)C(=O)N[C@H](C(=O)N[C@@H](CCCNC(=N)N)C(=O)N[C@H](C(=O)N[C@@H](CC(=O)O)C(=O)N[C@H](C(N)=O)C(C)C)C(C)C)C(C)C)C(C)C)C(C)C  viscosity (rotational rheometry; 1% w/v aqueous solution; shear rate range 1-1000 s^-1): 626 ± 40.2 Pa·s
